Assay results pooled from the literature.
Parts stem from different laboratories: compare values within a part only.

Series 1 — method: RNA Bind-n-Seq; form: RNA; medium: in vitro; concentration: 200 nM; setting: whole 134-nt RNA, ends assumed; together with: 150 mM KCl; baseline: input library; reading: higher = stronger binding
Target: Ras GTPase-activating protein-binding protein 1, full length (G3BP1, Homo sapiens, UniProt Q13283)
UniProt Q13283, sequence (whole entry, looked up): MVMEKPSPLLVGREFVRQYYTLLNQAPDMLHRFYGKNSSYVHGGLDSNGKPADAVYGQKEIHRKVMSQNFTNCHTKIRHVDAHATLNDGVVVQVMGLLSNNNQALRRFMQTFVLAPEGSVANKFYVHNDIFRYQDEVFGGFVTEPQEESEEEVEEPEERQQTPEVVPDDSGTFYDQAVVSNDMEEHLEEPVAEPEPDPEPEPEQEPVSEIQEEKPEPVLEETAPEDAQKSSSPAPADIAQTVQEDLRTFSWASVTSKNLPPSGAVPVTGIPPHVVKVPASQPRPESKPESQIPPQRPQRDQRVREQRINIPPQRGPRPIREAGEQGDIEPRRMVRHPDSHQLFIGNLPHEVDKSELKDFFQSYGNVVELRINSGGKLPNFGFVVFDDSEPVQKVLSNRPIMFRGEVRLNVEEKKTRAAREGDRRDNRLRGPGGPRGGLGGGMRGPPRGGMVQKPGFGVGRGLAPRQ
Sequence	log2 enrichment
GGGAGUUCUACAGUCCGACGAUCUGUGCUACACAUCGUAUGUACCGAAUCGGGGUUUUUUUGGGGUUUUUUUGGGGAAAAAGGGGAAAGUAUUAUGUUACGCCGUUCGGAUCUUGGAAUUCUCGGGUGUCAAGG	-0.502
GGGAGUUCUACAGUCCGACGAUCUCAAGUCCUGUGCUACACAUCGUAUGUACCGAAUCGGGGUUGGGGUUGGGGUUGGAAAGUAUUAUGUUACGCCGUUCGGAUCUGCACUUCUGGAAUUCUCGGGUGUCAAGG	0.215
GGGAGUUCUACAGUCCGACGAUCCUGUGCUACACAUCGUAUGUACCGAAUCGGGGAAAAAAGGGGAAAAAAGGGGAAAAAAGGGGAAAGUAUUAUGUUACGCCGUUCGGAUCUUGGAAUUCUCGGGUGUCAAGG	-0.264
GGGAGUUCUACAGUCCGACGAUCCCUCAAGUCCUGUGCUACACAUCGUAUGUACCGAAUCGGGGAGGGAGGAGGGGAAAGUAUUAUGUUACGCCGUUCGGAUCUGCACUUCCAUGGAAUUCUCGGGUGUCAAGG	1.21
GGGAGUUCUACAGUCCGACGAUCUGUUGUCUGGGUUUGGGGGUCGAGUAGAUGCGGGGCAGCCGGAGCUGUUGACGGAAAGGAGUAGCCCCAAAGGAGGGCAUGUGAAGUCGCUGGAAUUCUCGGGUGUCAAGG	-0.348
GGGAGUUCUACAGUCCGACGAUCAGUCCUGUGCUACACAUCGUAUGUACCGAAUCGGGAAAAAGGAAAAAGGAAAAAGGGGAAAGUAUUAUGUUACGCCGUUCGGAUCUGCACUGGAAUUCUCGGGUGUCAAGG	-0.602
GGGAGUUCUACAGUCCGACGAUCUGGCUGGCUGUGGCCUCACAGCUGAGGACUGCAAGGACCUUGCCUUUGGGCUGAGAGCCAACCAGACCCUGACCGAGCUGGACCUGAGCUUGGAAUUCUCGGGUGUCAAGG	-2.06
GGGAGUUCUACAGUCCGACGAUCUCCUGUGCUACACAUCGUAUGUACCGAAUCGGGGAAAGGGGUUUUUGGGGAAAAAGGGGAAAGUAUUAUGUUACGCCGUUCGGAUCUGCAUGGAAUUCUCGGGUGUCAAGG	0.681
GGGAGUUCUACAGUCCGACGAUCAGUCCUGUGCUACACAUCGUAUGUACCGAAUCGGGGAAAAAAAGGGGAGGGGAGGGGAAAGUAUUAUGUUACGCCGUUCGGAUCUGCACUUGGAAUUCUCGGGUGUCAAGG	0.668
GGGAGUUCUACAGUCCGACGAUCUCUAACUAAUUUUUCUUUGUUUUUUAACAGGAGAGGAGAUACUUACCCUUAAGUCAAGCCAGAAAAAGUGGUUUCCAAAUGGAUUGGCUGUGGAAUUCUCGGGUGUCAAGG	-0.931
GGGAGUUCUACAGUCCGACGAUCGUCCUGUGCUACACAUCGUAUGUACCGAAUCAAACCCCCCCAAAUUUUUAAACCCAAAAAAGUAUUAUGUUACGCCGUUCGGAUCUGCACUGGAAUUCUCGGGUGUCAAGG	0.031
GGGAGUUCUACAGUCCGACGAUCUCAAGUCCUGUGCUACACAUCGUAUGUACCGAAUCGGAAAGGAAAAAAAGGUGGAAAGUAUUAUGUUACGCCGUUCGGAUCUGCACUUCCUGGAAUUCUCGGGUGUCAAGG	-0.951
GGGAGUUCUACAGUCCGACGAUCUCCUCAAGUCCUGUGCUACACAUCGUAUGUACCGAAUCGGCGGCGGGCGGGGAAAGUAUUAUGUUACGCCGUUCGGAUCUGCACUUCCAGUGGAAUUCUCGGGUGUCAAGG	0.365
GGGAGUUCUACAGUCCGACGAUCCAAGUCCUGUGCUACACAUCGUAUGUACCGAAUCGGGCCCGGGGCCCGGCCCGGGAAAGUAUUAUGUUACGCCGUUCGGAUCUGCACUUCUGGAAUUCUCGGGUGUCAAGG	-0.904

Series 2 — method: competition protein-binding microarray; form: double-stranded DNA, one strand shown; medium: in vitro; concentration: 2 µM; together with: Pho4 competitor, 0.05 µM; reading: higher = stronger binding
Target: Centromere-binding protein 1, full length, His-tagged (CBF1, Saccharomyces cerevisiae, UniProt P17106, residues 1-351)
UniProt P17106, sequence (whole entry, looked up): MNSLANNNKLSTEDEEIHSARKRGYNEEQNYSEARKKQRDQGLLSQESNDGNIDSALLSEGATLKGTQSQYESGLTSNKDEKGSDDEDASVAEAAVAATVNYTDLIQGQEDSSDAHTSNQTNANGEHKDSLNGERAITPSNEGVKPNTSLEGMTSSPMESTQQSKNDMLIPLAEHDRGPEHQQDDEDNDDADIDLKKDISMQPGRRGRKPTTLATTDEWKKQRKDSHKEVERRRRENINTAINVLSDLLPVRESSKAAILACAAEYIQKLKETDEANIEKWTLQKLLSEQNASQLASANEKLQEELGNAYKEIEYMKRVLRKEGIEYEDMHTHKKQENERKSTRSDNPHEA
Setting: whole 60-bp probe, lowest competitor level
Sequence	fluorescence intensity [a.u.]
ATTGTCGCTGATAAAATCGTGATGGTCGATCAATGTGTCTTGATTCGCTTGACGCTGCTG	99
GGATTATTGATAGCCAACGTGCTTTGTTGGAAGACGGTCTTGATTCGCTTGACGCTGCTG	136
ATATGCGATTTCCATCACGATATGTCAATTATAGGCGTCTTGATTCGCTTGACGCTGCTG	182
CCCATTTGGTTCTTGCGCGTGCTAATTCCGAGAGGCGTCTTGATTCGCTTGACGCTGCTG	119
CGGGGTTAAGTTTTTCACGTGAAGTGCTTGCAGCAGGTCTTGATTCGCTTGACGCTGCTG	658
CTTTCCCGATCTTGTAACGTGGGTGTAGCACATTTGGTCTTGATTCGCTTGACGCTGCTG	98.1
CGTCCTAGTGATTGTTACGTGGGTGCCATGAGGAAGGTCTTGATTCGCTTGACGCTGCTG	91.1
GGAAGAAATGTCCATCACGTGATGGAGAACCAATGAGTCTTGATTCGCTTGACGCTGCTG	10800
CGTCCTAGTGATTGTCACTTGACTTCCATGAGGAAGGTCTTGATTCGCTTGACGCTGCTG	166
CTTTCCCGATCTTGCGTCGTGGGTGTAGCACATTTGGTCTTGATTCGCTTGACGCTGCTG	60.9
CGCTAGTACTTTATTCTCGTGGTGAGCATTTGAAGTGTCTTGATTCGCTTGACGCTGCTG	109
GTTGGCGAGGAAGATCGCGTGCGGACTAATTTTGAAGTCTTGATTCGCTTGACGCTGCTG	113
CTTCTGTAAATTTGGCACGTGTTTTGACGCGCCCCGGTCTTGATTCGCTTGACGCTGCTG	1860
AAATCATTATTTACGCGCGTGCAAATTTCGCCATCAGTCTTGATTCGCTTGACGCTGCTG	132
CTAACGAAGGTTTGCGTAGTGGGTGACAAGCCAAGTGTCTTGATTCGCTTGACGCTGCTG	75.9
AGTCTCCTTTGCTCTTTCGTGATGGACCCACCGTATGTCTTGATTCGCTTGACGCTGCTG	58.8
TATTTTTCTGACGGCCACGTGAGATTCCTGGTTCGAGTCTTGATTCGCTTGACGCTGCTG	898
ACTCGGGTGTCCTGGCATGTGGGTCCAACAATGGTCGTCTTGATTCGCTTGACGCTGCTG	58.3
CAGTTGCGACAGCAGCTCGTGTGAAGGTCGCTGGCGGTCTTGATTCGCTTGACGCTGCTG	47.5
TTTTGAGGGGAATTGATTACATTTCCTTTTTTTTTCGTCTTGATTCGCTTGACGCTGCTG	84.3
CTAACGAAGGTTTGATGTGTGGGTGACAAGCCAAGTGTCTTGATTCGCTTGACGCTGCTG	75.4
CGTCCTAGCGATTGAACTGTGGGTGCCATGAGGAAGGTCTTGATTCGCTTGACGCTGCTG	70.9
CTTTCCCGATCTTGTCACCTGACTTTAGCACATTTGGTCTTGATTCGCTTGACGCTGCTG	1920
CGGTCAGCCAACTGGCACGTGGTGAGTGTGCCTGGAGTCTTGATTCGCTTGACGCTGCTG	1300
CGTCCTAGTGATTGCCCCGTGGGTGCCATGAGGAAGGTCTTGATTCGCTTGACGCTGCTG	115

Series 3 — method: protein binding microarray; form: double-stranded DNA, one strand shown; medium: in vitro; concentration: not given; baseline: not given; reading: higher = stronger binding
Target: Histone acetyltransferase KAT6A, winged helix 2, GST fusion (KAT6A, Homo sapiens, UniProt Q92794, residues 85-181)
Setting: 8-mer, flanks averaged, mean of 2 arrays, mostly near background
Residues (chain): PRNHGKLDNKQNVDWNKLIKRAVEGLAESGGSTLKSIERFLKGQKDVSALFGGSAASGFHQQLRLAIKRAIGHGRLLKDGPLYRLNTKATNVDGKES
Sequence	E-score
CAGGAAAG	-0.0897
ATACGATG	-0.0275
ACTAAACT	-0.0557
AATTGTCG	-0.0459
CACCGCAG	-0.0563
AAGTATCA	0.0301
CCTGCTTC	0.196
TACTGATA	0.0535
AGGTGTGC	-0.104
CTTCCTTA	-0.164
CAGCTGAC	0.116
CCCTTCTC	-0.0412
AGTTCCCC	0.122
ACCCAGTA	-0.169
ATTGGCTA	-0.0689
CCGTCGGC	0.139
AGATTCGC	-0.0294
ATGTTGTC	-0.277
AACTCGTC	-0.0115
AGCTAACG	-0.00722
ACGCGCGA	0.104
CATTAGGC	-0.0277
GAATTGTA	0.0452
ACTTAACT	-0.0854
ACCACGGA	-0.274

Series 4 — method: protein-binding microarray; form: double-stranded DNA, one strand shown; medium: in vitro; concentration: 2540 nM top; setting: 60-bp whole probe; together with: salmon DNA 0.4 mg/ml; baseline: random background probes; reading: higher = stronger binding; constant ends, left off below: GCCTAGCAC … GTCTTGATTCGCTTGACGCTGCTG
Target: Interferon regulatory factor 3, full length, phosphomimetic (IRF3, Homo sapiens, UniProt Q14653, residues 1-427, S386D/S396D/S398D/S402D/T404D/S405D)
Construct (chain): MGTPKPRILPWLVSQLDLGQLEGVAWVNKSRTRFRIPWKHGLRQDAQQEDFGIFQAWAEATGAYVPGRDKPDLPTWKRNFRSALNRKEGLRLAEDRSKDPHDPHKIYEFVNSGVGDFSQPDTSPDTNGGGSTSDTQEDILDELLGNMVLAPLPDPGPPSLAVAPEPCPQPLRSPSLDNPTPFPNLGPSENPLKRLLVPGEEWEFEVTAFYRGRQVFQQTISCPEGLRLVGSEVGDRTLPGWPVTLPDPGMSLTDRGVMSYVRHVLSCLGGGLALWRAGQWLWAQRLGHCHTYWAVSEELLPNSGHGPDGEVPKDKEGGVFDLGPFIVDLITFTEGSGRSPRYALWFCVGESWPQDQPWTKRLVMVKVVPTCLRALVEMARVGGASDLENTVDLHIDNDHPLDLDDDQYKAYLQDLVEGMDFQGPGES
Sequence	fitted relative affinity
TGTCCTTTCTCCATGGGTATGTGCTAG	7.28 z-score
GACGATTCCTGTTTCGAGACGTGCTAG	2.7 z-score
TTAGGTACCGACTATCGGTTAGTGCTA	1.8 z-score
GACGGACTGCGACTGGGGACGTGCTAG	-0.835 z-score
GACGTTCTCGGTATCGGGACGTGCTAG	1.78 z-score
TTAGATTTCGGACTGGGTTAGTGCTAG	1.44 z-score
TTAGGTAGCGGGTTTCGGTTAGTGCTA	2.9 z-score
TTAGTTATCGGTATCGGTTAGTGCTAG	3.74 z-score
TTAGATTTCAGTTTCGATTTGTGCTAG	7.29 z-score
TCATTTTTTTTTTGGAAACTGTGCTAG	1.22 z-score
TTAGATTTTAGACTGGATTAGTGCTAG	-0.135 z-score
TTAGGTTTCGCTTTCGGTTAGTGCTAG	9.44 z-score
CTAGGACTGGGGACTGGGTTAGTGCTA	-1.03 z-score
GACGCTATCGGTTTCGGGACGTGCTAG	4.63 z-score
GACGGTTTCCTTTCCCTGTCGTGCTAG	10.6 z-score
GACGGTTCCGGTTTTGGGACGTGCTAG	4.36 z-score
AAGGTTACCCATCTCAAGTAGTGCTAG	3.97 z-score
ATTTAAGTTTCACTCTGCATGGTGCTA	3.68 z-score
